Published values from different studies.
Compare with care: the assays were run in different laboratories.
Cell line: MDA-MB-468

SMILES | test | setting | measurement | result
CN(C)CCN1CCN(c2ccc3nc(-c4ccc5nc(-c6ccc(C(F)(F)F)cc6)[nH]c5c4)[nH]c3c2)CC1 | SRB | 10 µM, 48 h | growth percent | 13.7%
Nc1ncnc2c1nc(Sc1cc(Cl)cc(Cl)c1)n2CCCn1ccnc1 | cell growth or viability, resazurin | 72 h | IC50 | > 10 µM
C#CCCCC(O)/C=C/C(=O)NC1(c2ccc(-c3nc4ccn5c(=O)[nH]nc5c4cc3-c3ccccc3)cc2)CCC1 (stereo not shown) | flow cytometry, PI staining | EC80 concentration, 72 h, DMSO 22.2 | cells in S phase | 22.1%
Cc1cc(C)nc(NC(=S)N2CCN(Cc3ccc(C(F)(F)F)cc3)CC2)c1 | isotope labelling | 10 µM, 4 h, added: U-13C-glucose | M+3 serine pool | decreased
C1=[N+]2CCCC[N+]3=Cc4ccc5[n]4[Au-]23[n]2c1ccc2-c1nc2ccccc2nc1-5.F[P-](F)(F)(F)(F)F | NCI60 five-dose screen | – | TGI | 5.51 -log M
Cc1ccc(C(=O)N2CCN(CC(OCc3ccc4ccccc4c3)c3ccc(Cl)cc3Cl)CC2)cc1 (stereo not shown) | cell growth or viability, MTT | 24 h | IC50 | 43.6 µM
O=S1(=O)CC2CCCCC2CS1 (stereo not shown) | MTT | 25 µM, 72 h | viability | 2.89%
O=C(CN1CCOCC1)N1CCN(CC(OCc2ccc3ccccc3c2)c2ccc(Cl)cc2Cl)CC1 (stereo not shown) | cell growth or viability, MTT | 24 h | IC50 | > 50 µM
CC(C)(C)NCCCn1c(Sc2cc(Cl)cc(Cl)c2)nc2c(N)ncnc21 | cell growth or viability, resazurin | 72 h | IC50 | 0.21 µM
CCCCN(CCCC)CC(=O)N1CCN(CC(OCc2ccc3ccccc3c2)c2ccc(Cl)cc2Cl)CC1 (stereo not shown) | cell growth or viability, MTT | 24 h | IC50 | 38.3 µM
C#CCCCC(F)/C=C/C(=O)NC1(c2ccc(-c3nc4ccn5c(=O)[nH]nc5c4cc3-c3ccccc3)cc2)CCC1 (stereo not shown) | flow cytometry PI | EC60, 72 h | G2/M phase cells | 28.6%
CC(C)NCCCn1c(Sc2cc(Cl)cc(I)c2)nc2c(N)nc(F)nc21 | cell growth or viability, resazurin | 72 h | IC50 | 0.05 µM
O=C(c1ccc([N+](=O)[O-])cc1)N1CCN(CC(OCc2ccc3ccccc3c2)c2ccc(Cl)cc2Cl)CC1 (stereo not shown) | cell growth or viability, MTT | 24 h | IC50 | 38.8 µM
Cc1nc2c(F)cc(-c3nc(Nc4ccc(CNC(=O)CCCCCCC(=O)NO)cc4)ncc3F)cc2n1C(C)C | cell growth or viability, CCK-8 | 0.3 µM, 48 h | inhibition | 100%
CC(C)NCCCn1c(Sc2cc(Cl)cc(-c3ccc[nH]3)c2)nc2c(N)ncnc21 | cell growth or viability, resazurin | 72 h | IC50 | 0.28 µM
Cc1nc2c(F)cc(-c3nc(Nc4ccc(CNC(=O)CCCCCC(=O)NO)cc4)ncc3F)cc2n1C(C)C | cell growth or viability, CCK-8 | 0.3 µM, 48 h | inhibition | 99.6%
C=C(C)c1cc(Cl)cc(Sc2nc3c(N)ncnc3n2CCCNC(C)C)c1 | cell growth or viability, resazurin | 72 h | IC50 | 0.06 µM
CC(C)(C)OC(=O)N1CCN(CC(OCc2ccc(Br)cc2)c2ccc(Cl)cc2Cl)CC1 (stereo not shown) | cell growth or viability, MTT | 24 h | IC50 | 22.8 µM
Cc1cc(C)nc(NC(=S)N2CCN(c3ccncc3)CC2)c1 | serine synthesis | 10 µM, 4 h, added: U-13C-glucose | M+3 serine and glycine pools | no effect
CCN1CCN(CC(=O)N2CCN(CC(OCc3ccc4ccccc4c3)c3ccc(Cl)cc3Cl)CC2)CC1 (stereo not shown) | cell growth or viability, MTT | 24 h | IC50 | 29 µM
Cc1cc(C)nc(NC(=S)N2CCN(c3ccc(C(F)(F)F)cn3)CC2)c1 | isotope labelling | concentration not given, 4 h, added: U-13C-serine | M+2 glycine pool | decreased
COc1ccc(C(=O)N2CCN(CC(OCc3ccc4ccccc4c3)c3ccc(Cl)cc3Cl)CC2)cc1 (stereo not shown) | cell growth or viability, MTT | 24 h | IC50 | 44.7 µM
CCN(C(=O)c1cc(F)ccc1Oc1nncnc1N1CCC2(C1)CN([C@H](CCCN(C)CCOC)C(C)C)C2)C(C)C | cell growth or viability | 72 h | GI50 | > 10 µM
Clc1ccc(C(Cn2cncn2)OCc2ccc3ccccc3c2)c(Cl)c1 (stereo not shown) | cell growth or viability, MTT | 24 h | IC50 | 33.4 µM
CC(C)NCCCn1c(Sc2cc(Cl)cc(C#CC3CC3)c2)nc2c(N)ncnc21 | cell growth or viability, resazurin | 72 h | IC50 | 8.2 µM

Some of these lines once more:
SMILES | test | setting | measurement | result
C1=[N+]2CCCC[N+]3=Cc4ccc5[n]4[Au-]23[n]2c1ccc2-c1nc2ccccc2nc1-5.F[P-](F)(F)(F)(F)F | NCI60 five-dose screen | – | TGI | 5.51 -log M
Cc1ccc(C(=O)N2CCN(CC(OCc3ccc4ccccc4c3)c3ccc(Cl)cc3Cl)CC2)cc1 (stereo not shown) | cell growth or viability, MTT | 24 h | IC50 | 43.6 µM
O=S1(=O)CC2CCCCC2CS1 (stereo not shown) | MTT | 25 µM, 72 h | viability | 2.89%
O=C(CN1CCOCC1)N1CCN(CC(OCc2ccc3ccccc3c2)c2ccc(Cl)cc2Cl)CC1 (stereo not shown) | cell growth or viability, MTT | 24 h | IC50 | > 50 µM
